Measured values collected from several papers.
Every numbered part comes from another study and shows a few of its results, in no order. Changes are numbered by the printed parent chain.

Series 1 — technique: protein-binding microarray; form: double-stranded DNA, one strand shown; medium: in vitro; concentration: not given; reading: higher = stronger binding
Target: Protein max, full length (MAX, Homo sapiens, UniProt P61244-2, residues 1-151)
Notes: k-mer, scored over probes, only values ≥0.25
| Sequence | E-score |
| --- | --- |
| ACGCGGTC | 0.37 |
| ACACACAT | 0.349 |
| ACGCGTGA | 0.441 |
| CGTGGAGC | 0.386 |
| ATGCTCGC | 0.277 |
| GTGTTGCA | 0.31 |
| AGACACGA | 0.351 |
| AGGCACAT | 0.396 |
| ACGGGGGC | 0.279 |
| ACGCGCCG | 0.262 |
| GACGTGGC | 0.265 |
| CATGGGGC | 0.369 |
| CATGACTA | 0.289 |
| CCATCACG | 0.275 |
| ACCACGTC | 0.258 |
| ATCATGCC | 0.307 |
| GGCGCACA | 0.273 |
| AATCACGG | 0.263 |
| CATCCACG | 0.357 |
| ACATGGCT | 0.315 |
| AAGCGTGA | 0.397 |
| CGCTGCCA | 0.266 |
| CCATGCAG | 0.359 |
| GCATGACA | 0.38 |
| AACGCACA | 0.265 |

Series 2 — technique: RNA Bind-n-Seq; form: RNA; medium: in vitro; concentration: 200 nM; notes: whole 134-nt RNA, ends assumed; with: 150 mM KCl; baseline: input library; reading: higher = stronger binding
Target: Ras GTPase-activating protein-binding protein 1, full length (G3BP1, Homo sapiens, UniProt Q13283)
Sequence of UniProt Q13283 (whole entry, looked up): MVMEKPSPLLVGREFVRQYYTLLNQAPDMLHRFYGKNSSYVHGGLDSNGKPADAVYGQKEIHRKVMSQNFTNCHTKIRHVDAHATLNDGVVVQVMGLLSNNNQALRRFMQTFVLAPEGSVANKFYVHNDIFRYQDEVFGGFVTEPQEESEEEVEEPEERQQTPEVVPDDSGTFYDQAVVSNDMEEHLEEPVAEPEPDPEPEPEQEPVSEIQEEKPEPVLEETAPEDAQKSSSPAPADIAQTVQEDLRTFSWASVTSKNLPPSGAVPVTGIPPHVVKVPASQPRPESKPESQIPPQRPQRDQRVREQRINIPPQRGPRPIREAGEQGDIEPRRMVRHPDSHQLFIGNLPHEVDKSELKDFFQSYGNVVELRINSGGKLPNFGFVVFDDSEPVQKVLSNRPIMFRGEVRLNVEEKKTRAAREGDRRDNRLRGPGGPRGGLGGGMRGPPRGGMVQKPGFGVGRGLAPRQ
Shared flanks, not repeated: GGGAGUUCUACAGUCCGACGAUC … UGGAAUUCUCGGGUGUCAAGG
| Sequence | log2 enrichment |
| --- | --- |
| GUCCUGUGCUACACAUCGUAUGUACCGAAUCGGGAAAAGGGGAAAAGGGGAAAAGGGGAAAGUAUUAUGUUACGCCGUUCGGAUCUGCAC | 0.235 |
| UCCUCAAGUCCUGUGCUACACAUCGUAUGUACCGAAUCGGGUGGGGUGGUGGAAAGUAUUAUGUUACGCCGUUCGGAUCUGCACUUCCAG | 0.494 |
| UGAAAAGAACUGCUCUCCAUGGAGAGAGUAACUCUGUCCUUAUUAUCGGACCCCGAGGAUCAGGAAAAACUAUGGUAAAAGCUGUUGAUU | -1.43 |
| UCCUGUGCUACACAUCGUAUGUACCGAAUCAAAUUUUUUUAAACCCCCCCAAAUUUAAAAAAGUAUUAUGUUACGCCGUUCGGAUCUGCA | 0.367 |
| GCAGGAAGUAAAAACAAAUGGAAUUGCUUCGGAUAGUGGCAGGGGUGGGGGUUGCUAAGGAAAGGGUGGGAUGGGAGUGGGUAAAGAGUU | 0.849 |
| UCCUGUGCUACACAUCGUAUGUACCGAAUCGGGGAAAAAAAGGGGUGGGGAAAAAGGGGAAAGUAUUAUGUUACGCCGUUCGGAUCUGCA | 0.746 |
| UGUGCUACACAUCGUAUGUACCGAAUCGGGGAAAAAAAGGGGAAAAAAAGGAAAAAAAGGGGAAAGUAUUAUGUUACGCCGUUCGGAUCU | -0.464 |
| CAAGUCCUGUGCUACACAUCGUAUGUACCGAAUCGGGGUUUUGGUUUUGGUUUUGGAAAGUAUUAUGUUACGCCGUUCGGAUCUGCACUU | -0.834 |
| UCCUGUGCUACACAUCGUAUGUACCGAAUCGGGCCCCCCGGCCCCCCGGGCCCCCCGGGAAAGUAUUAUGUUACGCCGUUCGGAUCUGCA | -0.473 |

Series 3 — technique: universal PBM; form: double-stranded DNA, one strand shown; medium: in vitro; concentration: 600 nM; reading: higher = stronger binding
Target: Sal-like protein 4, full length isoform A (SALL4, Homo sapiens, UniProt Q9UJQ4, residues 1-1053)
Sequence of UniProt Q9UJQ4 (whole entry, looked up): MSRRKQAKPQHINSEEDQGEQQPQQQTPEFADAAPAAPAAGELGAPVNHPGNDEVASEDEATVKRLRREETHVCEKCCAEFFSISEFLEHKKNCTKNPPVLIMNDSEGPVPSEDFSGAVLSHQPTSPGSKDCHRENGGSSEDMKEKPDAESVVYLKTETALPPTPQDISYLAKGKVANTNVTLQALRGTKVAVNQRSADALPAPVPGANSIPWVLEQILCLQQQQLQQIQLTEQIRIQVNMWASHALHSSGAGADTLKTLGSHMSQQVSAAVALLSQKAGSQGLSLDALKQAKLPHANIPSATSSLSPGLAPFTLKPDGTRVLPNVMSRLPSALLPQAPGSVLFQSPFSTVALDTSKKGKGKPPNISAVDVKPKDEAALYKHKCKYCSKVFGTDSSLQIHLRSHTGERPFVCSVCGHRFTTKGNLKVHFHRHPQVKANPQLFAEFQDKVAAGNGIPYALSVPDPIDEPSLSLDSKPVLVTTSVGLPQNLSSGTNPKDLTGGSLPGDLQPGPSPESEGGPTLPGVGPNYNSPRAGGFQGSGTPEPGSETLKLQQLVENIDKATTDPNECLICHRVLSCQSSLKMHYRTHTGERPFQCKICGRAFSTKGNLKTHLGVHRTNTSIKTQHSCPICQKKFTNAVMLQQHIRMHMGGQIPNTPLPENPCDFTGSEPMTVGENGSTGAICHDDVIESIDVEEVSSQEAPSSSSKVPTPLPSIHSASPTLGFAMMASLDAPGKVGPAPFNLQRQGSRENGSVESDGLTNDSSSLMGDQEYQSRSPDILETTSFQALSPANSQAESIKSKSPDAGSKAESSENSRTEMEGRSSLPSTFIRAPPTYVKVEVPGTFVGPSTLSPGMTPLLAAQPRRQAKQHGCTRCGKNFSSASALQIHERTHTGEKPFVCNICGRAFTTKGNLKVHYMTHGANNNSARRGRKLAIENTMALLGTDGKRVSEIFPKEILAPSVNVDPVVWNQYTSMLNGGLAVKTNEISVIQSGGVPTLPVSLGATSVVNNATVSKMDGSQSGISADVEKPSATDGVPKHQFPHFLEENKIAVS
Notes: 8-mer, flanks averaged, mean of replicates
| Sequence | E-score |
| --- | --- |
| GGTCCGGA | -0.288 |
| GCGGCATA | -0.0395 |
| AGAGCGCC | -0.29 |
| CAATCCCA | -0.0977 |
| ACTAAGAC | -0.018 |
| CCGCGAAG | -0.264 |
| AAAAGGTA | 0.132 |
| AGGTGGGA | -0.114 |
| CTTTGCTC | -0.0878 |
| CATTGTGG | 0.00455 |
| ATTCACTC | 0.125 |
| AATGTTAG | 0.17 |
| CGCCACCA | -0.254 |
| AAGGTAAG | 0.152 |
| ATGCTGCC | -0.068 |
| GTTGGTCA | 0.0669 |
| AGTTCTAT | 0.0903 |
| CGTGCATA | 0.171 |
| AAAGAAGT | 0.122 |
| GGATTAAA | 0.107 |
| GATGCCAC | -0.278 |
| AGTGCTAG | -0.0435 |
| ATGTGGGC | -0.042 |
| AATCCGCG | -0.208 |
| TTATGGAA | 0.346 |

Series 4 — target: CCNE1, cyclin fold, Cln2 fusion (human); technique: yeast growth competition, sequencing; medium: yeast; notes: weak parent motif; baseline: not given; reading: higher = stronger binding
Starting sequence: RB1 docking peptide (human); PKPLKKLRFDIEG
| Substitution | normalised enrichment score |
| --- | --- |
| PKPLKKLRFDICG [E12C] | 0.553 |
| PHPLKKLRFDIEG [K2H] | -0.322 |
| PKPLKKLRFDNEG [I11N] | 0.586 |
| PKPLKKLRMDIEG [F9M] | 0.658 |
| PKPTKKLRFDIEG [L4T] | 0.0533 |
| PKPLKKLRFDIKG [E12K] | -0.287 |
| LKPLKKLRFDIEG [P1L] | -0.431 |
| PKPLCKLRFDIEG [K5C] | 0.56 |
| PKPLKKLRFAIEG [D10A] | 0.772 |
| PKPLHKLRFDIEG [K5H] | 0.47 |
| PKPWKKLRFDIEG [L4W] | 0.236 |
| PKPLKKLRFDIGG [E12G] | 0.743 |
| PKPLKKARFDIEG [L7A] | 1.08 |
| PAPLKKLRFDIEG [K2A] | -0.218 |
| PKPFKKLRFDIEG [L4F] | 0.352 |
| QKPLKKLRFDIEG [P1Q] | 1.12 |
| PKPLKKLRFKIEG [D10K] | 0.0699 |
| PKPLSKLRFDIEG [K5S] | 1.18 |
| PKPLKKGRFDIEG [L7G] | 0.66 |
| PLPLKKLRFDIEG [K2L] | 0.87 |
| PKPLWKLRFDIEG [K5W] | 0.248 |
| PKPLKKLRFDIEC [G13C] | -0.263 |
| PKPKKKLRFDIEG [L4K] | -0.0737 |
| PKPLKKLKFDIEG [R8K] | 0.427 |
| PKLLKKLRFDIEG [P3L] | 0.498 |

Series 5 — technique: protein binding microarray; form: double-stranded DNA, one strand shown; medium: in vitro; concentration: not given; baseline: not given; reading: higher = stronger binding
Target: Histone acetyltransferase KAT6A, winged helix 1, GST fusion (KAT6A, Homo sapiens, UniProt Q92794, residues 1-85)
Notes: 8-mer, flanks averaged, mean of 2 arrays, mostly near background
Target sequence (chain): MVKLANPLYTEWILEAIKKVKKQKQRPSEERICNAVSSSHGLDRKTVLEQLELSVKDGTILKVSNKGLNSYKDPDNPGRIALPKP
| Sequence | E-score |
| --- | --- |
| TATTTAGA | -0.0739 |
| AGAACGTG | 0.0174 |
| ATAAGCAA | -0.194 |
| GGTTTTGA | -0.0113 |
| CATTACAA | -0.0407 |
| CTTACAGC | -0.0518 |
| AAGCATCA | -0.17 |
| AGGTTCGA | -0.183 |
| ACGGATTG | 0.216 |
| GCGCGCAA | 0.438 |
| ATCTTCAA | -0.165 |
| ATACTACG | 0.0933 |
| AACAAGTC | -0.187 |
| CGGTCGTA | 0.235 |
| CCCTAGTA | 0.012 |
| CCCAAAGG | -0.105 |
| CCCTCTTC | -0.102 |
| ACCGTGCC | 0.176 |

Series 6 — technique: aptamer microarray, sandwich; form: DNA with 2'F-ANA; medium: in vitro; concentration: 200 nM; with: Cy3 exosite-II aptamer, 400 nM; reading: higher = stronger binding; sequence: GGTTGGTGTGGTTGG
Target: Prothrombin, mature alpha-thrombin (F2, Homo sapiens, UniProt P00734)
Notes: whole 15-mer aptamer, many near background
| Modification | mean fluorescence intensity [a.u.] |
| --- | --- |
| 2'F-ANA at 1 2 3 6 7 11 12 13 | 482 |
| 2'F-ANA at 1 3 4 7 11 12 14 | 92 |
| 2'F-ANA at 4 7 9 13 15 | 179 |
| 2'F-ANA at 2 4 6 7 8 11 13 14 15 | 83.1 |
| 2'F-ANA at 1 3 6 7 8 9 13 | 249 |
| 2'F-ANA at 2 3 4 5 6 7 9 11 12 13 | 86.9 |
| 2'F-ANA at 2 3 8 9 10 12 15 | 433 |
| 2'F-ANA at 1 2 7 10 12 13 | 63.7 |
| 2'F-ANA at 4 7 9 10 11 | 86.1 |
| 2'F-ANA at 2 8 9 10 11 15 | 119 |
| 2'F-ANA at 3 4 5 8 9 11 | 98.9 |
| 2'F-ANA at 1 2 5 6 11 14 15 | 51.8 |
| 2'F-ANA at 2 4 5 6 7 8 9 11 14 15 | 53.2 |
| 2'F-ANA at 3 4 5 6 8 11 12 13 14 15 | 52.6 |
| 2'F-ANA at 4 5 12 13 | 159 |
| 2'F-ANA at 3 5 8 10 13 14 15 | 95 |
| 2'F-ANA at 1 2 3 5 7 8 11 12 14 | 57.4 |
| 2'F-ANA at 1 2 3 4 5 6 7 8 9 10 11 13 14 | 62.1 |
| 2'F-ANA at 1 3 5 8 12 13 14 15 | 83.7 |
| 2'F-ANA at 2 3 5 7 11 13 14 15 | 48.9 |
| 2'F-ANA at 2 4 6 8 9 11 | 244 |
| 2'F-ANA at 3 4 6 8 10 12 13 14 | 172 |
| 2'F-ANA at 1 4 6 7 13 15 | 76.8 |

Mixed results
| Molecule | target | assay | test system | setting | scale | quantity | value |
| --- | --- | --- | --- | --- | --- | --- | --- |
| PhoQ, residues 284 288 289 292 302 303 SSTLLI | PhoP, residues 12 14 15 18 19 AQALL (Escherichia coli, UniProt P23836) | Sort-seq, measured: YFP reporter | E. coli | PhoQ-PhoP variant library, with: 10 µM Mg2+ | baseline: high Mg2+ state, higher = stronger signaling | fold induction | 19.2 |

A few entries again (series 6):
| Modification | mean fluorescence intensity [a.u.] |
| --- | --- |
| 2'F-ANA at 1 3 6 7 8 9 13 | 249 |
| 2'F-ANA at 2 3 4 5 6 7 9 11 12 13 | 86.9 |
| 2'F-ANA at 2 3 8 9 10 12 15 | 433 |
| 2'F-ANA at 1 2 7 10 12 13 | 63.7 |
| 2'F-ANA at 4 7 9 10 11 | 86.1 |
| 2'F-ANA at 2 8 9 10 11 15 | 119 |
| 2'F-ANA at 3 4 5 8 9 11 | 98.9 |
| 2'F-ANA at 1 2 5 6 11 14 15 | 51.8 |
| 2'F-ANA at 2 4 5 6 7 8 9 11 14 15 | 53.2 |
| 2'F-ANA at 3 4 5 6 8 11 12 13 14 15 | 52.6 |
| 2'F-ANA at 4 5 12 13 | 159 |
| 2'F-ANA at 3 5 8 10 13 14 15 | 95 |
| 2'F-ANA at 1 2 3 5 7 8 11 12 14 | 57.4 |
| 2'F-ANA at 1 2 3 4 5 6 7 8 9 10 11 13 14 | 62.1 |
| 2'F-ANA at 1 3 5 8 12 13 14 15 | 83.7 |
| 2'F-ANA at 2 3 5 7 11 13 14 15 | 48.9 |
| 2'F-ANA at 2 4 6 8 9 11 | 244 |
